Results of several laboratories.
Parts stem from different laboratories: compare values within a part only.

Set 1 — method: protein binding microarray; molecule type: double-stranded DNA, one strand shown; medium: in vitro; concentration: not given; reference: not given; direction: higher = stronger binding
Target: Histone acetyltransferase KAT6A, both winged helices, GST fusion (KAT6A, Homo sapiens, UniProt Q92794, residues 1-181)
Notes: 8-mer, flanks averaged, mean of 2 arrays, mostly near background
Residues (chain): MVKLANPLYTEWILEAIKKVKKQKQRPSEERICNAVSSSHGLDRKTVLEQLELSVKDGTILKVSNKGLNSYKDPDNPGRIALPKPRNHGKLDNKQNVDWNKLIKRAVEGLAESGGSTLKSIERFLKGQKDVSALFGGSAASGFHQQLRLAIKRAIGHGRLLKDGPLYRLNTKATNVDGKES
For `CAGCAATG`, the E-score was -0.181.
The E-score of `AACGCGTT` is reported as 0.296.
For `ACTCAACT`, the E-score was -0.0941.
For `CAGACTTA`, the E-score was -0.104.

Set 2 — method: protein-binding microarray; molecule type: double-stranded DNA, one strand shown; medium: in vitro; concentration: 2540 nM top; notes: 60-bp whole probe; added: salmon DNA 0.4 mg/ml; reference: random background probes; direction: higher = stronger binding
Target: Interferon regulatory factor 3, full length, phosphomimetic (IRF3, Homo sapiens, UniProt Q14653, residues 1-427, S386D/S396D/S398D/S402D/T404D/S405D)
Sequence of UniProt Q14653 (whole entry, unmodified, looked up): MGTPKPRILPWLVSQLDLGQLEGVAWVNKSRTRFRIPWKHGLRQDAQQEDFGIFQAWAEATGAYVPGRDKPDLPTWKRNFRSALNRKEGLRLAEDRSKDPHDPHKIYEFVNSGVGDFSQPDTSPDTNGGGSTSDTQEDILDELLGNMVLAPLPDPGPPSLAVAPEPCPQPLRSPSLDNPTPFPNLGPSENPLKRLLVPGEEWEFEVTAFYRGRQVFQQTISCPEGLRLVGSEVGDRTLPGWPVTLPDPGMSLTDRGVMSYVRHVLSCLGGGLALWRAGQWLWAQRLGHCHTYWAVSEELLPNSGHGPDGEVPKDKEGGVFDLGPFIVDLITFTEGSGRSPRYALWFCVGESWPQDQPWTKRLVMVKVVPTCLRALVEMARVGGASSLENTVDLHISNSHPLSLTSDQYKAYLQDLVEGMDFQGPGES
`GCCTAGCACTCATTTATCAAATGTGGGACTGTGCTAGTCTTGATTCGCTTGACGCTGCTG`: “fitted relative affinity” 1.16 z-score.
`GCCTAGCACGACGGTTTCCTTATCCGGACGTGCTAGGTCTTGATTCGCTTGACGCTGCTG`: “fitted relative affinity” 8.67 z-score.
`GCCTAGCACTCAAGCATGGATCTGGGACTGTGCTAGGTCTTGATTCGCTTGACGCTGCTG` — result for “fitted relative affinity”: -0.934 z-score.
Under “fitted relative affinity”, `GCCTAGCACTTAGGTTACGGGTATCGGTTAGTGCTAGTCTTGATTCGCTTGACGCTGCTG` is recorded as 0.772 z-score.

Set 3 — method: universal PBM; molecule type: double-stranded DNA, one strand shown; medium: in vitro; concentration: not given; direction: higher = stronger binding
Target: Sal-like protein 4, full length isoform B (SALL4, Homo sapiens, UniProt Q9UJQ4-2, residues 1-616)
Notes: 8-mer, flanks averaged, mean of replicates
`AAAGGAAC` has an E-score of -0.0156.
The E-score of `TATGCCGA` is reported as 0.0389.
The E-score of `ACCGCAGT` is reported as -0.0988.

Single results of other studies
The fold induction of `PhoQ, residues 284 288 289 292 302 303 TLMATV` is reported as 14.8 (PhoP, residues 12 14 15 18 19 SPWRL (Escherichia coli, UniProt P23836); Sort-seq, refers to: YFP reporter; E. coli; PhoQ-PhoP variant library, added: 10 µM Mg2+; reference: high Mg2+ state, higher = stronger signaling).

A few entries again (set 2):
`GCCTAGCACTCATTTATCAAATGTGGGACTGTGCTAGTCTTGATTCGCTTGACGCTGCTG`: “fitted relative affinity” 1.16 z-score.
